# Measured values pooled from the literature.
# Each line is one published result; not all experiments were run side by side. Values joined by “and” are separate records of one study, mostly repeats; a detail may differ. Numbers after ± are the reported error.
SMILES,test,system,conditions,tissue uptake
CCCC[C@H](NC(=O)COCCOCCNC(=O)CN1CCN(CC(=O)O)CCN(CC(=O)O)CC1)C(=O)N[C@H]1CC(=O)NCCCC[C@@H](C(N)=O)NC(=O)[C@H](Cc2c[nH]c3ccccc23)NC(=O)[C@H](CCCNC(=N)N)NC(=O)[C@@H](Cc2ccccc2)NC(=O)[C@H](Cc2c[nH]cn2)NC1=O [fluorine-18 labelled],,"C57 mice B16-F10 melanoma, muscle","intravenous, 0.37 MBq, 2 h",0.21 ± 0.34 %ID/g
O=C(NCC1OC2CCC=CCCC2O1)c1ccc([18F])nc1 (stereo not shown),,"healthy female BALB/c nude mice, bladder","intravenous, 7.4 MBq per mouse, 5 min",3.8 ± 1.9 %ID/g
COc1ccc2c(c1)C(C)(C)C(/C=C/C1=C(Oc3ccc(C(=O)NCCCCOc4cc(CN(Cc5ccccn5)Cc5ccccn5)cc(CN(Cc5ccccn5)Cc5ccccn5)c4)cc3)C(=C/C=C3/N(CCCCS(=O)(=O)[O-])c4ccc(OC)cc4C3(C)C)CCC1)=[N+]2CCCCS(=O)(=O)[O-].O=[N+]([O-])[O-].O=[N+]([O-])[O-].[99Tc+].[C-]#[O+].[C-]#[O+].[C-]#[O+].[Zn+2],,"healthy BALB/c mice, adrenals",12 h,1.95 %ID/g and 2.14 %ID/g and 2.47 %ID/g and 2.9 %ID/g
CCCC[C@H](NC(=O)CCCCCCCNC(=O)CN1CCN(CC(=O)O)CCN(CC(=O)O)CC1)C(=O)N[C@H]1CC(=O)NCCCC[C@@H](C(N)=O)NC(=O)[C@H](Cc2c[nH]c3ccccc23)NC(=O)[C@H](CCCNC(=N)N)NC(=O)[C@@H](Cc2ccccc2)NC(=O)[C@H](Cc2c[nH]cn2)NC1=O [fluorine-18 labelled],,"C57 mice, B16/F10 melanoma, lung","intravenous, 1 h, added: NDP-MSH 10 µg",1.57 ± 0.41 %ID/g
COc1ccc(Nc2nc(Nc3ccc(OCCOCC[18F])cc3)ncc2Br)cc1,,"ICR mice, S180 tumour, bone","intravenous, 30 min, added: PF-562271 33 mg/kg oral 1 h before",3.39 ± 0.24 %ID/g
O=C([O-])CN1CCN(CC(=O)[O-])CCN(CC(=O)NC[C@H]2CC[C@H](C(=O)N[C@H](Cc3cnc4ccccc4c3)C(=O)NCCCC[C@H](NC(=O)N[C@@H](CCC(=O)O)C(=O)O)C(=O)O)CC2)CCN(CC(=O)[O-])CC1.[64Cu+2],ex vivo gamma counting,"22Rv1 tumour-bearing mice, heart","intravenous, 0.74 MBq, 24 h post-injection",5.07 %ID/g
CCCC[C@H](NC(=O)CNC(=O)CNC(=O)[C@H](CCCCNC(=O)[C@H](CC(N)=O)NC(=O)C(C)c1ccc(CC(C)C)cc1)NC(=O)CN1CCN(CC(=O)O)CCN(CC(=O)O)CCN(CC(=O)O)CC1)C(=O)N[C@H]1CC(=O)NCCCC[C@@H](C(N)=O)NC(=O)[C@H](Cc2c[nH]c3ccccc23)NC(=O)[C@H](CCCNC(=N)N)NC(=O)[C@@H](Cc2ccccc2)NC(=O)[C@H](Cc2c[nH]cn2)NC1=O (stereo partly shown) [lutetium-177 labelled],,"C57 mice, tumour-bearing, skin",2 h,1.31 ± 0.55 %ID/g
N#C[C@@H]1CCCN1C(=O)CNC(=O)c1ccnc2ccc(OCCCN3CCN(C(=O)CCc4ccc5c(c4)CN4CCN6CC(=O)[O][68Ga-]([O]C(=O)C4)([O]5)[O]c4ccc(CCC(=O)N5CCN(CCCOc7ccc8nccc(C(=O)NCC(=O)N9CCC[C@H]9C#N)c8c7)CC5)cc4C6)CC3)cc12,,"BALB/c nude mice, U-87 MG xenograft, kidney",2 h,2.68 ± 1.09 %ID/g
O=C(NCC1OC2CCC=CCCC2O1)c1ccc(COCCOCCOCC[18F])cc1 (stereo not shown),,"healthy female BALB/c nude mice, small intestine","intravenous, 7.4 MBq per mouse, 60 min",7.8 ± 3.8 %ID/g
Cc1cc(C)n(CCN(CCN)CCCCCCNC(=O)[C@@H](N)Cc2c[nH]cn2)n1.[99Tc+].[C-]#[O+].[C-]#[O+].[C-]#[O+],,"BALB/c nude mice, MCF7 xenograft, intestine","intravenous, 15 min",10.8 ± 1.05 %IA/g
CCCC[C@H](NC(=O)CNC(=O)CNC(=O)[C@H](CCCCNC(=O)[C@H](CC(=O)O)NC(=O)C(C)c1ccc(CC(C)C)cc1)NC(=O)CN1CCN(CC(=O)O)CCN(CC(=O)O)CCN(CC(=O)O)CC1)C(=O)N[C@H]1CC(=O)NCCCC[C@@H](C(N)=O)NC(=O)[C@H](Cc2c[nH]c3ccccc23)NC(=O)[C@H](CCCNC(=N)N)NC(=O)[C@@H](Cc2ccccc2)NC(=O)[C@H](Cc2c[nH]cn2)NC1=O (stereo partly shown) [lutetium-177 labelled],,"C57 mice, tumour-bearing, kidneys","intravenous, 0.037 MBq, 24 h",7.38 ± 1.78 %ID/g
CC(C)C[C@H](NC(=O)[C@@H](CCCCNC(=O)[C@@H](Cc1ccccc1)NC(=O)CCCCCCCNC(=O)CN1CCN(CC(=O)O)CCN(CC(=O)O)CCN(CC(=O)O)CC1)NC(=O)[C@H](Cc1ccc(O)cc1)NC(=O)[C@H](CO)NC(=O)[C@H](Cc1c[nH]c2ccccc12)NC(=O)[C@H](Cc1c[nH]cn1)NC(=O)[C@@H]1CCC(=O)N1)C(=O)N[C@@H](CCCNC(=N)N)C(=O)N1CCC[C@H]1C(=O)NCC(N)=O [indium-111 labelled],,"male athymic nude mice, DU-145 prostate cancer xenograft, heart","intravenous, dose not given, 1 h, added: unlabeled blocking peptide 10 µg",0.17 ± 0.06 %ID/g
N#C[C@@H]1CCCN1C(=O)CNC(=O)c1ccnc2ccc(OCCCN3CCN(C(=O)CCc4ccc(O)c(CN5CCN6CC(=O)[O][Al-]([18F])([O]C(=O)C5)[O]c5ccc(CCC(=O)N7CCN(CCCOc8ccc9nccc(C(=O)NCC(=O)N%10CCC[C@H]%10C#N)c9c8)CC7)cc5C6)c4)CC3)cc12 (stereo partly shown),,"BALB/c nude mice, U-87 MG tumour, gallbladder",120 min post-injection,62 ± 32.8 %ID/g
